Earlier results as cited in several papers.
Compare with care: the assays were run in different laboratories. ± gives the spread as reported.

SMILES	tested on	test	test system	conditions	quantity	value
O=C(Cc1cccs1)NC(B(O)O)c1cccc(C(=O)O)c1 (centres unmarked)	Enterobacter cloacae P99 AmpC β-lactamase	inhibitor			Ki	29 nM
CCCCCCCCCCCCNC(=O)N[C@H](C(=O)N[C@H]1/C=C/CCNC(=O)/C=C/[C@H](C)NC1=O)C(C)C	immunoproteasome trypsin-like site	enzyme activity, inhibitor	purified proteasome		Ki	250 nM
CCC(=O)Nc1c(NC[C@H](O)[C@H](O)[C@H](O)CO)[nH]c(=O)[nH]c1=O	Bacillus subtilis lumazine synthase	substrate		pH 7.0	Ks	3.2 ± 0.3 µM
NCCNCCSc1ccccc1			urine	100 µg/mL, three freeze-thaw cycles	freeze-thaw stability	94.8 ± 2.27 % remaining
O=C(c1ccccc1)N(O)CCCP(=O)(O)O	Mycobacterium tuberculosis DXR	enzyme activity, inhibitor			IC50	> 25000 nM
N[C@@H](Cc1ccc(O)cc1)C(=O)N1Cc2ccccc2C[C@H]1CN[C@@H](CC1CCCCC1)C(=O)N[C@@H](Cc1ccccc1)C(=O)O	delta opioid receptor	muscle contraction, antagonist	mouse vas deferens		Ke	0.175 ± 0.025 nM
COc1ccc(OCC2c3cc(OC(C)C)ccc3CCN2C(=O)c2cccc(Cl)c2)cc1 (racemic)	kainate receptor	receptor activity			effect on kainate receptors	no effect
CN(C(=O)Cc1ccc(Cl)c(Cl)c1)[C@@H]1CCCC[C@H]1N1CCCC1	Trypanosoma brucei	parasite growth			Hill slope	1.3
CN(C)c1ccc(C(=O)NCCCNC(=O)CS)cc1	primary cortical neurons			together with: homocysteic acid	full neuroprotection concentration	10 µM
CNCCNC(=O)c1cc2c([nH]c3c(C)cccc32)c(-c2ccc(Cl)c(Cl)c2)n1	Plasmodium falciparum	SYBR Green I	Dd2	72 h, asexual blood stage	EC50	~100 nM
c1ccc2c[n+](CCCCCCCC[n+]3ccc4ccccc4c3)ccc2c1	muscle-type nicotinic acetylcholine receptor	acetylcholine-evoked current, antagonist		together with: acetylcholine 100 µM	IC50	1900 ± 200 nM
COc1ccc(NC(=O)CSc2nc3c(N)ncnc3[nH]2)cc1OC	ENPP1 (human)	inhibitor		pH 9, together with: p-nitrophenyl-TMP substrate	Ki	5 nM
O=C(N[C@@H]1CC[C@@]2(O)[C@H]3Cc4ccc(O)c5c4[C@@]2(CCN3CC2CC2)[C@H]1O5)c1ccncc1F	mu opioid receptor	binding			Ki	0.36 nM
O=C(Cc1ccc(Cl)c(Cl)c1)N1CC[C@H]2CC[C@@H](N3CCCC3)[C@@H]1C2	kappa opioid receptor	binding			Ki	18 nM
